Results of several laboratories.
Numbered parts are unrelated; each lists some results of a single study. Positions count from the first letter of the parent shown.

Block 1 — method: RNA Bind-n-Seq; molecule type: RNA; medium: in vitro; concentration: 365 nM; baseline: no-protein control; reading: higher = stronger binding
Target: RNA binding protein fox-1 homolog 2, RRM domain, GST-SBP tag (RBFOX2, Homo sapiens, UniProt O43251-10, residues 100-194)
Notes: natural RNA segment, single round, ends assumed
Target sequence (chain): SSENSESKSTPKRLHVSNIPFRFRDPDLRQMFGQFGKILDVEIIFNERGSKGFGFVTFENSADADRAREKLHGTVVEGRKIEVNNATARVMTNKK
Sequence | RBNS enrichment (R)
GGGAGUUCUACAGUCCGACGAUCGCUGGGCACAGUGGCUCACGCCUGUAAUCCCAGCACUUUGGGAGGCCGAGGCGGGCGGAUCAUGAGGUUAGGAGAGCGAGACCAUCCUGGCUAACACGGUGAAACCCCGUUGGAAUUCUCGGGUGCCAA | 0.343
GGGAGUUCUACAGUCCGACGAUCUAUCCCUUAUCCAAAAUGCUUGGAACCAGAAGUGUUUCAAAUUUUAGAUUAUUUUCAGAUUUUGGAAUGUUUGCAUAUACAUAAUGAGAUAUUUUGGGAAUAGGACCCGAUGGAAUUCUCGGGUGCCAA | 1.48
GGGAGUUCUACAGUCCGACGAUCUAAUUGUUAAGCCUCUUAUUCUAAAGUCCAUAGCAAUGCUAUGGAAUAUCAAGUAUAAUGAUGUAGUAAAAAGAUUUCUCCAGAAAACACUUUGAGAUACUUAAAGAAAUUGGAAUUCUCGGGUGCCAA | 0.314
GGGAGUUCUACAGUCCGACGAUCGUGUAAUUUUUCUGUAUAGACAGGAGAAGAAAGAACUAUCUUCAUCUGAGAGAGGCUAAAAUGUUUUCAGCUAGGAACAAAUCUUCCUGGUCGAAAGUUAGUAGGAUAUGUGGAAUUCUCGGGUGCCAA | 0.365
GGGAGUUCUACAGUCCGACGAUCGUGUUCUGUUUCAAUGUAUAAGGACUAUAGUGAUUUAAACUCAUCAAUGUGCCUUUGCAUAAAGUUCAUUAAAUAAAUAUUGAUGUGGUAUAAAUGCCCAUCAGAUAUGCUGGAAUUCUCGGGUGCCAA | 0.465
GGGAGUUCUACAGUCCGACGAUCGAAGUUUGUCAAUGACUGAAAUGCGAGCAGUGUCACCCAGAGUUGUGGUCAGCCUUACCCCUUCUCCGAGAACAAGCAGAGCGCUCUAUUUUUAACUAUGUUACACUCGUUGGAAUUCUCGGGUGCCAA | 0.31
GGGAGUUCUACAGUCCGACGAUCGGGUGAGCCCUGCUGUGAGAGUUCAGGCCCUGGGAGGCUCAGCCACCUCCUCUUGUGGGAAGGAGGUCUCAGCCCCACCUCGCAUCUUCACCUGCCCUUGGUGUGGACACUGGAAUUCUCGGGUGCCAA | 0.357
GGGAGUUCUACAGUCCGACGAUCUUUGAUAUUUCUCUUCCGAGAUGAACAAGUAGCAUGUAAUGCAACUGUUUGACAGUUUAACUCAAGUCAUGCUUCAAACUGUUUUAAUGAUCAAAUCAAGACACAUUUCAUGGAAUUCUCGGGUGCCAA | 0.666
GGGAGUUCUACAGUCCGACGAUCCUCCCCCAGCCAGGUUCUGCUCUGGCUGGGCCCUUGGCUGGACUCCUAUUCAAAUUUAUUUGACGUUUUAUUUUGGUUUUCCUCACCCCCUCAAACUGUCGGGGAGACCCUGGAAUUCUCGGGUGCCAA | 0.554
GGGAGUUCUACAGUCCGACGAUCGCACCCCAGACUUGACUGUGUAAAUAAGAGUGUUUCAUUCAAAUGUUAAUAAACUUUACACAGUAUAUAGACACAUUUUCUGCAAUGUACUGACAUCAGUGUCCAAUAUAUGGAAUUCUCGGGUGCCAA | 0.506
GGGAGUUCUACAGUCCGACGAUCAUGCCAAUAGUAGGUGAGAGUGUAUUGCACAGAGUUGGAGAUAGUAAGGUGGUGACAUUUAACACAGUUACUCUGUCUUUUUUCAGAUUAUGGGUAUUUAUCCUCUAUUAUGGAAUUCUCGGGUGCCAA | 1.77
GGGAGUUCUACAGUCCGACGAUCCUGAGAAACAGCAUGCAAAACAUUUGAACCAUUUUCUACAUCUCCCAUUGUUGCAUAGAGAGUGUGCACCGCUGCUAUCUUGCCAGAUCCACACUGGUCCUCCCGAAAGCUGGAAUUCUCGGGUGCCAA | 1.35

Block 2 — method: protein-binding microarray; molecule type: double-stranded DNA, one strand shown; medium: in vitro; concentration: 250 nM; notes: 60-bp whole probe; with: salmon DNA 0.4 mg/ml; baseline: random background probes; reading: higher = stronger binding; shared flanks, not repeated: GCCTAGCAC … GTCTTGATTCGCTTGACGCTGCTG
Target: Interferon regulatory factor 5, full length, phosphomimetic (IRF5, Homo sapiens, UniProt Q13568-2, residues 1-514, K96S/S451D/S453D/S456D/S462D)
Sequence | log fluorescence [z-score]
GACGGACTGGGGACTGGGGACGTGCTA | -0.453
GACGAACTGGGGTTTAGAGACGTGCTA | -0.475
GAGTGCTGGGATTACAGGCAGTGCTAG | -0.878
TGGCCTATTTATATGAGATGGTGCTAG | 0.0242
TTAGATCTCAGTCTCGATCAGTGCTAG | 0.538
GACGGTTTCGGGACTGGTGACGTGCTA | 4.94
CTCAGTTTATTTATTTTTACGTGCTAG | 0.692
TACGATTTCAGTTCCGAGACGTGCTAG | 1.33
GACGGTATCCTTCTCCTGATGTGCTAG | 0.283
GACGAACTGCGGTTTCGAGACGTGCTA | 1.68
TTAGAACTGGGGTTTCGATTTGTGCTA | 4.85
GACGAACTCAGACTGGAGACGTGCTAG | -0.421
GACGAACTGAGTTTTGAGACGTGCTAG | -0.00156
CTGTCATCATCGTTCCCAGCGTGCTAG | -0.052
TTAGGTATCGGGTTTCGGGTAGTGCTA | 6.34
TTAGGTATCGACACAGGGTTAGTGCTA | 2.64
TCCATTATTGCTTCCTCTTTGTGCTAG | 0.853
GACGAACTGGGGTTTCCAGACGTGCTA | -0.287
TTAGGTATCGGGTCTCGGTTAGTGCTA | 3.28
TTAGGTTTCCTCATCCTTTAGTGCTAG | 0.5
TTTTTTTTTTGTATTTTTGAGTGCTAG | 1.49
TCATGCTTGCGTCTGGGACTGTGCTAG | -0.0969
ATGTTTTTCATTGTTTTTCAGTGCTAG | 2.21
TTAGATATCGGGACTGGCTTAGTGCTA | 1.07

Block 3 — target: CCND2, cyclin fold, Cln2 fusion (human); method: yeast growth competition, sequencing; medium: yeast; notes: weak parent motif; baseline: not given; reading: higher = stronger binding
Starting sequence: CDKN1B docking peptide (human); PSACRNLFGPVDH; partner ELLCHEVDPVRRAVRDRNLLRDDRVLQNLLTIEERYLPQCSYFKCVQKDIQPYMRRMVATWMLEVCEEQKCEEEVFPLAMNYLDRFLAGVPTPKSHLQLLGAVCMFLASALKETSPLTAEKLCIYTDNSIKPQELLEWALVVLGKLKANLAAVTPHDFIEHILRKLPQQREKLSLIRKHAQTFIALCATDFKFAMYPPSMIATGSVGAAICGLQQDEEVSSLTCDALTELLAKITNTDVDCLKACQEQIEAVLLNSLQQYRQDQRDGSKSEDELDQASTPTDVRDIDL
Variant | normalised enrichment score
F8Q | 0.34
P1Y | 0.25
L7G | 0.0519
N6L | 0.424
L7K | 0.0211
S2W | 0.0216
P10K | -0.177
F8Y | -0.185
C4I | 0.239
C4R | 0.468
R5P | -0.0347
A3V | 0.069
R5L | 0.0566
V11I | -0.115
N6I | 0.319
H13G | 0.13
H13I | -0.0577
D12M | 0.232
A3G | -0.155
D12E | 0.177
R5T | 0.127
N6P | -0.0874
P1T | 0.46
G9W | 0.214
L7E | 0.00989

Block 4 — method: DHFR PCA, deep sequencing; medium: yeast; with: (+)-ABA 1.4 µM; baseline: wild-type fitted maximum; reading: higher = stronger binding
Target: ABI1, truncated, D143A, DHFR fusion (Arabidopsis thaliana)
Notes: methotrexate growth selection, single substitutions
Starting sequence: PYL1, truncated, DHFR fusion (Arabidopsis thaliana); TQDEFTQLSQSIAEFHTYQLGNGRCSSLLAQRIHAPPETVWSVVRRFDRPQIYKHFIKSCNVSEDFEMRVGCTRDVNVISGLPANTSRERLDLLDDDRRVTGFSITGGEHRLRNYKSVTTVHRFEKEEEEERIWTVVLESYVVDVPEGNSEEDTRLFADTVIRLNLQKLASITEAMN; partner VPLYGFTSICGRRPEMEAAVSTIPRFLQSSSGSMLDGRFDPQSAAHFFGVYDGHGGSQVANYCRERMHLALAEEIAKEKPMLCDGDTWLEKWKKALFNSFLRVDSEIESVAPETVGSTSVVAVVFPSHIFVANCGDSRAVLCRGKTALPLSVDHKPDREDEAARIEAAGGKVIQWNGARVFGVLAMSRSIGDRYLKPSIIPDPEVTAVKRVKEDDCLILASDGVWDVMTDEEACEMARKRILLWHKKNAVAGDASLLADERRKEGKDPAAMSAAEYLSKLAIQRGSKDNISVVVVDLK
Variant | relative binding score [%]
Y53R | -5.1
T86R | 33.6
S26I | -13.9
F124D | 45
G107C | 11.4
R123S | 75.7
K116P | -8.87
V145N | -49.5
L91N | -1.4
E129W | 26.9
G108E | -8.71
R99M | 95.2
P50M | -10.8
R24I | 26.3
C60A | 4.32
T39D | 41.4
A170E | -0.097
R98E | 5.21

A few entries again (block 1):
Sequence | RBNS enrichment (R)
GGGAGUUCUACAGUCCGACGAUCUUUGAUAUUUCUCUUCCGAGAUGAACAAGUAGCAUGUAAUGCAACUGUUUGACAGUUUAACUCAAGUCAUGCUUCAAACUGUUUUAAUGAUCAAAUCAAGACACAUUUCAUGGAAUUCUCGGGUGCCAA | 0.666
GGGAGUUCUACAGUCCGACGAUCCUCCCCCAGCCAGGUUCUGCUCUGGCUGGGCCCUUGGCUGGACUCCUAUUCAAAUUUAUUUGACGUUUUAUUUUGGUUUUCCUCACCCCCUCAAACUGUCGGGGAGACCCUGGAAUUCUCGGGUGCCAA | 0.554
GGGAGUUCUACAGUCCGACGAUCGUGUAAUUUUUCUGUAUAGACAGGAGAAGAAAGAACUAUCUUCAUCUGAGAGAGGCUAAAAUGUUUUCAGCUAGGAACAAAUCUUCCUGGUCGAAAGUUAGUAGGAUAUGUGGAAUUCUCGGGUGCCAA | 0.365
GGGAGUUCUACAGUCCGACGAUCGGGUGAGCCCUGCUGUGAGAGUUCAGGCCCUGGGAGGCUCAGCCACCUCCUCUUGUGGGAAGGAGGUCUCAGCCCCACCUCGCAUCUUCACCUGCCCUUGGUGUGGACACUGGAAUUCUCGGGUGCCAA | 0.357
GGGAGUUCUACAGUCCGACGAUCGCACCCCAGACUUGACUGUGUAAAUAAGAGUGUUUCAUUCAAAUGUUAAUAAACUUUACACAGUAUAUAGACACAUUUUCUGCAAUGUACUGACAUCAGUGUCCAAUAUAUGGAAUUCUCGGGUGCCAA | 0.506
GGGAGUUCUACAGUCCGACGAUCUAAUUGUUAAGCCUCUUAUUCUAAAGUCCAUAGCAAUGCUAUGGAAUAUCAAGUAUAAUGAUGUAGUAAAAAGAUUUCUCCAGAAAACACUUUGAGAUACUUAAAGAAAUUGGAAUUCUCGGGUGCCAA | 0.314
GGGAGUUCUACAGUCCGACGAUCGUGUUCUGUUUCAAUGUAUAAGGACUAUAGUGAUUUAAACUCAUCAAUGUGCCUUUGCAUAAAGUUCAUUAAAUAAAUAUUGAUGUGGUAUAAAUGCCCAUCAGAUAUGCUGGAAUUCUCGGGUGCCAA | 0.465
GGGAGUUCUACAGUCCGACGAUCGCUGGGCACAGUGGCUCACGCCUGUAAUCCCAGCACUUUGGGAGGCCGAGGCGGGCGGAUCAUGAGGUUAGGAGAGCGAGACCAUCCUGGCUAACACGGUGAAACCCCGUUGGAAUUCUCGGGUGCCAA | 0.343
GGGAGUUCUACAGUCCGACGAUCUAUCCCUUAUCCAAAAUGCUUGGAACCAGAAGUGUUUCAAAUUUUAGAUUAUUUUCAGAUUUUGGAAUGUUUGCAUAUACAUAAUGAGAUAUUUUGGGAAUAGGACCCGAUGGAAUUCUCGGGUGCCAA | 1.48
